Measurements collected from several papers.
Each numbered part is a random draw from the data of one study; scales do not carry over between parts. Positions count from the first letter of the parent shown.

Block 1
Target: ATF2, bZIP domain (human)
Technique: DHFR protein complementation
Matrix: yeast
Setting: single substitutions, most at no-binding floor
Baseline: wild-type JUN-FOS pair
Direction: higher = stronger binding
Starting sequence: JUN, bZIP domain (human); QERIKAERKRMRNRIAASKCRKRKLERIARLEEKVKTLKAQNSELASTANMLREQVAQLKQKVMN; partner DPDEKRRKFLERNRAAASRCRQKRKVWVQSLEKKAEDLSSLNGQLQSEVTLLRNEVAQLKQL
For `Q41F`, the binding fitness was -1.59 natural log.
For `A29V`, the binding fitness was -1.44 natural log.
`S47C` has a binding fitness of -1.19 natural log.
With `Q41A` the binding fitness was -1.4 natural log.
For `T37R`, the binding fitness was -1.29 natural log.
`E32Y` gave a binding fitness of -1.44 natural log.
For `R30S`, the binding fitness was -1.35 natural log.
The binding fitness of `S43I` is reported as -1.43 natural log.

Block 2
Target: RNA binding protein fox-1 homolog 2, RRM domain, GST-SBP tag (RBFOX2, Homo sapiens, UniProt O43251-10, residues 100-194)
Technique: RNA Bind-n-Seq
Form: RNA
Matrix: in vitro
Concentration: 365 nM
Setting: natural RNA segment, single round, ends assumed
Baseline: no-protein control
Direction: higher = stronger binding
Residues (chain): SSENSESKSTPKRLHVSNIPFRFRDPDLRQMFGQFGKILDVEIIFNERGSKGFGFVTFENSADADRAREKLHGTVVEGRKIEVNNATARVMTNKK
`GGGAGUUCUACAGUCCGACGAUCGCUCAAGCAAUCCUCCCACUUUAGCCUCCUGAGUAGCUGGGACUACAGGCGUGUGCCAGCGCGCCUGGCUAAUUUUAAAAUUUUUUUGUAGAGACAGAGUCUCCCUCUGUUGGAAUUCUCGGGUGCCAA`: “RBNS enrichment (R)” 0.525.
For `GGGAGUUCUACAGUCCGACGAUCAUAUUUCAACGCUGUCAAUAAUUGUCUUUAACCUCCAAGUAGGUCUUGCAGAAUCGUCUUCAUUUCAUCAGACCUAUUGGGGGUGAACAGUAAUUAAUAGGAGGCCCAGCUGGAAUUCUCGGGUGCCAA`, “RBNS enrichment (R)” read 0.387.
Under “RBNS enrichment (R)”, `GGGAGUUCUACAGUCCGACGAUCCUUUCAGUGUACUAAAAGGCAGAAAGGUCAUCACAACUUUAGUGUCAGAAUCUAUAGUGGUGGCAAAGUUAGGAUAGCUCUUUAGUAAUUUGGGCCCAGUGCCUUGGUGAUGGAAUUCUCGGGUGCCAA` is recorded as 0.41.
`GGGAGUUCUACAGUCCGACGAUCAGUCACAGAGGAUGAAAUACCACAUCAAGGCAGUGGGAACUUCCUGCGACUUCUCCUGGUCCUCCCCAGAAGUAUCUGGUGUCAGCUGAAGACCAUGUGUCCCCCAAUACUGGAAUUCUCGGGUGCCAA`: “RBNS enrichment (R)” 0.359.
`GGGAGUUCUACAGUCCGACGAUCGUCAGUUAAAUUAUGGCCUACACUGAUCUGAGAUGUUCUCCACGUGAGCUGUCUUCAUUUCUCUGUGCUAUGUCCAGAUGUGGGGUUGCUGCAGCCGGGGUUCUAUGGCAUGGAAUUCUCGGGUGCCAA` — result for “RBNS enrichment (R)”: 0.362.
For `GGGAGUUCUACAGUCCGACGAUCUCCCCCUCAACUCCAUACUCAACAGGGAUGCACAGGAUUGCUAACAGAGGGCGGGGCACACCUCAGUUUUCUAUCACCUUCCUACCAGAGGGGAAAGUAACCUGAACUUUUGGAAUUCUCGGGUGCCAA`, “RBNS enrichment (R)” read 0.391.
`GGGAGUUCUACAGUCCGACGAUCAAAAUGAGCCCUCACUUCAGCCUGUAUCUAGCACGUGGGGCAGCUGCCUAGCUGACUGCUGCACAAGGCUGACUCUGGGCUCUACCCACCCUGCCUGAUGAGCCCUUCACUGGAAUUCUCGGGUGCCAA` — result for “RBNS enrichment (R)”: 0.309.
For `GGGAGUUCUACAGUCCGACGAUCGUUAGUGGCUGCUGGCGUUUUGGCCCUUGGUGUUUCUGGAGCCUCCAGGGAUCUAGGGGAGCCUGGGCUGCGUGCAUGUCGAUAAGCAGAGCUGUUCUUGGGGAGAAGGAUGGAAUUCUCGGGUGCCAA`, “RBNS enrichment (R)” read 4.72.

Block 3
Target: Histone acetyltransferase KAT6A, winged helix 1, GST fusion (KAT6A, Homo sapiens, UniProt Q92794, residues 1-85)
Technique: protein binding microarray
Form: double-stranded DNA, one strand shown
Matrix: in vitro
Concentration: not given
Setting: 8-mer, flanks averaged, mean of 2 arrays, mostly near background
Baseline: not given
Direction: higher = stronger binding
Residues (chain): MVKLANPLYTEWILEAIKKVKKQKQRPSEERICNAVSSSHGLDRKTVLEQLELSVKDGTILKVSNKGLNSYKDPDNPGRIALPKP
For `CCCACTCC`, the E-score was -0.0624.
`ACGTCTCT` has an E-score of -0.0365.
With `GCTTCTTA` the E-score was -0.0958.
For `AGTGGAAC`, the E-score was -0.0951.
`ATGATAAA` has an E-score of -0.00115.
With `AGACTAAT` the E-score was -0.0807.
`CTTACTCC` has an E-score of -0.029.
With `ATAGCGCG` the E-score was 0.385.

Mixed results
O=C(O)[C@@H]1[C@@H](Cn2nnc3ccccc3c2=O)CC[C@H]1C(=O)c1ccc(OCCC2CCOCC2)cc1 gave a remaining binding of 58% (Epidermal growth factor receptor (EGFR, Homo sapiens, UniProt P00533, L861Q); cell-free assay, competition with immobilised ligand; 1 µM).

Some of these lines once more (block 2):
For `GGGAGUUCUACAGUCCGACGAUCUCCCCCUCAACUCCAUACUCAACAGGGAUGCACAGGAUUGCUAACAGAGGGCGGGGCACACCUCAGUUUUCUAUCACCUUCCUACCAGAGGGGAAAGUAACCUGAACUUUUGGAAUUCUCGGGUGCCAA`, “RBNS enrichment (R)” read 0.391.
`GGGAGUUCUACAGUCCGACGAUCGCUCAAGCAAUCCUCCCACUUUAGCCUCCUGAGUAGCUGGGACUACAGGCGUGUGCCAGCGCGCCUGGCUAAUUUUAAAAUUUUUUUGUAGAGACAGAGUCUCCCUCUGUUGGAAUUCUCGGGUGCCAA`: “RBNS enrichment (R)” 0.525.
Under “RBNS enrichment (R)”, `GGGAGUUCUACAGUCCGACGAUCCUUUCAGUGUACUAAAAGGCAGAAAGGUCAUCACAACUUUAGUGUCAGAAUCUAUAGUGGUGGCAAAGUUAGGAUAGCUCUUUAGUAAUUUGGGCCCAGUGCCUUGGUGAUGGAAUUCUCGGGUGCCAA` is recorded as 0.41.
For `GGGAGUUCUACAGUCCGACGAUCAUAUUUCAACGCUGUCAAUAAUUGUCUUUAACCUCCAAGUAGGUCUUGCAGAAUCGUCUUCAUUUCAUCAGACCUAUUGGGGGUGAACAGUAAUUAAUAGGAGGCCCAGCUGGAAUUCUCGGGUGCCAA`, “RBNS enrichment (R)” read 0.387.
